Experimental data collected from several papers.
Protocols differ between the studies behind these lines. ± gives the spread as reported.

Compound | system | conditions | scale | endpoint | result
CC1(C)CC[C@]2(NC(=O)C(C)(F)F)CC[C@]3(C)[C@H](C(=O)C=C4[C@@]5(C)C=C(C#N)C(=O)C(C)(C)[C@@H]5CC[C@]43C)[C@@H]2C1 | human, plasma | oral, dose not given, with: efavirenz | – | AUC extrapolated percentage | 2.4%
COC(=O)c1ccc2c(c1)NC(=O)/C2=C(\Nc1ccc(N(C)C(=O)CN2CCN(C)CC2)cc1)c1ccccc1 | healthy human, plasma | oral, 150 mg single dose | – | AUC extrapolated | 20.3%
N#Cc1cc(NC(=O)[C@H]2c3ccccc3C(=O)N(CC(F)(F)F)[C@@H]2c2cccnc2)ccc1F | human, plasma | oral, 75 mg, median | – | AUC | 2610 ng·h/mL
C[C@@H](c1ccc2nccn2c1)n1nnc2ncc(-c3cnn(C)c3)nc21 | human, plasma | oral, dose not given, cycle 2 day 1, multiple doses, all | – | AUC at steady state | 14900 ng·h/mL
Nc1ccn([C@@H]2O[C@H](CO)[C@@H](O)C2(F)F)c(=O)n1 | human patients, plasma | intravenous, 800 mg/m2, median, after paricalcitol | – | AUC extrapolated | 0.26%
C=CC(=O)Nc1cc(Nc2nccc(-c3cn(C)c4ccccc34)n2)c(OC)cc1N(C)CCN(C)C | human patients | oral, dose not given, cycle 3 day 1, geometric mean, with: chemotherapy | – | AUC at steady state | 11.8 µM·h
C=CC(=O)N1CCC[C@@H](n2c(=O)n(-c3ccc(Oc4ccccc4)cc3)c3c(N)nccc32)C1 | human | oral, 240 mg | reference: fed over fasted | AUC fed/fasted ratio | 1.72
CC(C)(C#N)c1cc(Cn2cncn2)cc(C(C)(C)C#N)c1 | human | 125 mg | – | AUC at steady state | 1030 ng·h/mL
N#Cc1ccc(C(c2ccc(C#N)cc2)n2cncn2)cc1 | human patients, plasma | oral, 15 mg daily | – | AUC at steady state per dose | 24.1 ± 3.71 µg·h/mL/mg
CC#CC(=O)N1CCC[C@H]1c1nc(-c2ccc(C(=O)Nc3ccccn3)cc2)c2c(N)nccn12 | human, plasma | oral, dose not given, 100 mg once daily dosing, with: rifampicin 600 mg | – | AUC | 150 ng·h/mL
C[C@@H](Oc1ccc(S(C)(=O)=O)cc1C(=O)N1C[C@@H]2C[C@]2(c2cc(C(F)(F)F)on2)C1)C(F)(F)F | healthy human volunteers | oral, 10 mg single dose, with: Meal, high-fat, ~1000 kcal | reference: fasted state | AUC increase | 14%
N#Cc1ccc(C(c2ccc(C#N)cc2)n2cncn2)cc1 | human | 150 mg | – | AUC at steady state | 2710 ng·h/mL
COC(=O)N[C@H](C(=O)N1CCC[C@H]1c1ncc(-c2cc(F)c3c(c2)O[C@@H](c2cnc(C4CC4)s2)n2c-3cc3cc(-c4cnc([C@@H]5CCCN5C(=O)[C@@H](NC(=O)OC)C(C)C)[nH]4)ccc32)[nH]1)C(C)C | healthy adult humans | oral, dose not given | reference: moderate-fat meal over fasted | AUC increase | 63%
COc1ccc2[nH]c([S@+]([O-])Cc3ncc(CO)c(OC)c3C)nc2c1 | human, dried plasma spots | dose not given, with: rifampicin pretreatment | reference: control over induction | AUC fold decrease | 4.4 fold
CC(C)(C(=O)N1CCOc2c(C#N)cncc2C1)C(F)F | healthy humans, both sexes, plasma | oral, 20 mg single dose, 2-fold dose increase | reference: 20 mg over 10 mg | AUC dose proportionality ratio | 2.07
COc1ccc2[nH]c([S@+]([O-])Cc3ncc(C)c(OC)c3C)nc2c1 | human male, dried plasma spots | dose not given, with: rifampicin pretreatment | reference: control over induction | AUC fold decrease | 10.9 fold
O=C(COc1ccc(Cl)cc1)NC12CC(c3nnc([C@H]4C[C@@H](OC(F)(F)F)C4)o3)(C1)C2 | healthy human volunteers fasted, plasma | oral, 800 mg single dose, arithmetic mean | – | AUC | 776 µM·h
Cc1cc(-c2nccc3c2ccn3CC(=O)Nc2ccc(-c3cnccn3)cn2)ccn1 | human, plasma | oral, 15 mg once daily, day 1, geometric mean | – | AUC | 1.32 µM·h
